Assay results of several laboratories.
Every numbered part comes from another study and shows a few of its results, in no order. Substitutions count along the parent as printed.

Study 1
Target: RING finger protein unkempt homolog, zinc fingers 1-6, GST-SBP tag (UNK, Homo sapiens, UniProt Q9C0B0, residues 30-357)
UniProt Q9C0B0, sequence (30-357, looked up): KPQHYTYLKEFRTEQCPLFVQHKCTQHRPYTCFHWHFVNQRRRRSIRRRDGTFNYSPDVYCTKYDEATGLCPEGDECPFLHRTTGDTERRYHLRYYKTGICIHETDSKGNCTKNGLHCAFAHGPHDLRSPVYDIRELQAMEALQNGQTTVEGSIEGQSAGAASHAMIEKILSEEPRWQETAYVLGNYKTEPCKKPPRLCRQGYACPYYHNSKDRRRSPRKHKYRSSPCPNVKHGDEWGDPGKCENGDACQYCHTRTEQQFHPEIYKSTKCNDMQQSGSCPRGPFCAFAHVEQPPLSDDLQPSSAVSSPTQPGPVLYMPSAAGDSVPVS
Method: RNA Bind-n-Seq
Form: RNA
Sample: in vitro
Tested at: not given
Notes: RNA with constant flanks, human and mouse sites, ends assumed
Relative to: input RNA pool
Reading: higher = stronger binding
Sequence	bound/input enrichment [ratio]
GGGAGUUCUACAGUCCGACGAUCAACUUGGCUGCUGUCUUGGAGAGGCUGGUGGACAUAAAGAAAGGGAAUACUUUGCUCUUGCAGCAUCUGAAGAGGAUCAUCUCUGACCUGUGUAAACUCUACAACCUCCCUCAGCAUCCUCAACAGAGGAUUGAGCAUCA	0.104
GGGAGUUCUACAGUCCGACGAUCAGCAAAUUCUGUGAAUAUGAAAGGAGAUUUCAGAUGACUUUCCAGUUCAGCAUAUGGGACAAAUUUCGGGACUUGGAAAACUUGCCAGCUACGAAUUUCUCUAAUUUGGUUCAUCUGGUGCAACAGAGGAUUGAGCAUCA	0.276
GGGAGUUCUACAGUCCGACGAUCAAGAAAUUAUUAAACAAAACAAGGGGGGCAAUAAAUGUAUAUAACAUUAAUAAUGUCGCGUAGGUGUAGGUUCCUGGAUGCAUUUGGAUGUACAGACUGACUGGGGGACUGUAUUGCGAUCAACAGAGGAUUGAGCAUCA	1.24
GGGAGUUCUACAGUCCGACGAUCGAUCUGCAGGCAUAUCUCACAGAUUUCCUCUGCCAGUUUGCUCAGCAGCCCUGCUACAUAAUGUUUUCAGGCCACCUUAAUGACAAUGAGAGGCGAGUUCUACAGACCAUCGGCAUCUAACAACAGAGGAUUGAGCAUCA	0.12
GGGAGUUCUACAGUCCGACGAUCUAAAGCAGGUUCAAAAACACAUGAACUGCAGAUGCCAUAGGCCUCAAAUCAGCUGUAAUUCUAGGAGACACGUGUUGAUCUAGUUAUCUAACAUUGUUGUUAUAAGAAAAUGAGUUUACUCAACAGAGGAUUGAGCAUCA	0.19
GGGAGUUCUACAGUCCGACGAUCCAGCCCAUCUCUAUGGCCUCCCUGUCUACAAACACAGAGCAAGAGCGGGUAUCUCGAGGAACCAGUACAGUCCUGCCAUCCGCCUCCCUCCAUGCACCACCAGAACCCAUUGAGGAAGCUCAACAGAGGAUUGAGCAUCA	0.31
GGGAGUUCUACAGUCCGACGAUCCAACAGUUUGCACAAGCCCAGCUUCAUCCUUCUUCAUCAGCAUCCUUUACUCAGGCUUCUAAUGUUUCUAAUUACUCAGGUCAGACACUGCAGCCUAUCGGGGUGACUCACGUGCCUGUUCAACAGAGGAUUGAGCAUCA	0.266
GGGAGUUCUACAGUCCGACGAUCACCAUGAUGGAGGGUCAACUGAUCUCCGUAGCAGCCAGGGCAAAGUGAAUGACCUCAGAAACUAGGAAUUCUUGCAAAGACACUGCCUAAUAGUGUGAUUUUGAAACCUUGAUACAAAAGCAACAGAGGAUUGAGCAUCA	0.442
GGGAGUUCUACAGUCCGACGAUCAGGAGCCAGGAGAGGCGGGCGGGUCCCUAACGCUCGCAUUUGGGUAAAAGUCGCACGGAGUAGCAGCGUCUGUUCUGCACCAACUCAGAGUCUUGUUGGAGCUUUAUCCCUUUGUCCUAGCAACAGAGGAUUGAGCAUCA	0.14
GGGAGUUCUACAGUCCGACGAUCGGCAAAGUACAACAGCUGCCUAAAUACACCUCUCAAAUAGUGGGUAGAUUUAUUAAGCCUCUCAGCAAUGCUUACCAUGAGUUAGCACAAGUUUAUUCAACCAACAACCCGUCUGAGCUGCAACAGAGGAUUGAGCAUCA	0.341
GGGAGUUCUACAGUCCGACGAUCACCUGAUCCUUUACCCGAAAAAAUAAGAGGAUAUCAAGAGGCUGAAAGAAUAUUUUCAGAAGCAUAGACUCUUCGGAGGAUACUGCAGUUCAUGAGAUCUCAAGGUACAUGUGACAACGCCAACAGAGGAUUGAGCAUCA	0.14

Study 2
Target: Histone acetyltransferase KAT6A, winged helix 2, GST fusion (KAT6A, Homo sapiens, UniProt Q92794, residues 85-181)
Method: protein binding microarray
Form: double-stranded DNA, one strand shown
Sample: in vitro
Tested at: not given
Notes: 8-mer, flanks averaged, mean of 2 arrays, mostly near background
Relative to: not given
Reading: higher = stronger binding
Residues (chain): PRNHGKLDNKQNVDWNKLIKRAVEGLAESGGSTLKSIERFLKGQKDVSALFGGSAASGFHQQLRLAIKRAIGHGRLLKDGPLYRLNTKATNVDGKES
Sequence	E-score
CTCAGAGA	0.14
AGAGCCGC	0.0538
CCAAAACC	0.0871
AGCTTCCA	0.127
ACAGTCTA	-0.208
GCCTGGGA	0.0803
CTGTCATA	-0.0963
GTAACTCA	-0.0294
AAAGGCCC	-0.0553
TAAACGAA	0.0254
CCCTCAAC	0.0106
ATGCTCAG	0.0591
GGACGTAA	-0.27
ACCGTTCT	-0.212
AGCACCGC	0.0757
GGCTGTGA	-0.0253

Study 3
Target: RNA binding protein fox-1 homolog 2, RRM domain, GST-SBP tag (RBFOX2, Homo sapiens, UniProt O43251-10, residues 100-194)
Method: RNA Bind-n-Seq
Form: RNA
Sample: in vitro
Tested at: 365 nM
Notes: natural RNA segment, single round, ends assumed
Relative to: no-protein control
Reading: higher = stronger binding
Construct (chain): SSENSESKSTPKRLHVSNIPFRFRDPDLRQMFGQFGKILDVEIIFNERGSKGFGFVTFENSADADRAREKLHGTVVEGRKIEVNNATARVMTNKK
Sequence	RBNS enrichment (R)
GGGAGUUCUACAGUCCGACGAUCGGUAAACUAAGCUAGUUUAACACUUGAGCAAAUGCUUAAGAAGGAAUUAAAAAAAAAAAGCUUUGCCAAUAGCUAAAAAGUACAAGCUAUUAAAAAUCAGAUUGAAAAGUUGGAAUUCUCGGGUGCCAA	0.482
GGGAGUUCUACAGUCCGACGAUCGUGAAGCCCUAGACGAUGGAAUCCUACCAAGCUGAACGUCGGCUUCUAUCCAUAUGCUAUCGAGUAAUUAUAGAAGCAAUUAACACUCACUGUUCUUGCCUCUGGUGAGAUGGAAUUCUCGGGUGCCAA	0.446
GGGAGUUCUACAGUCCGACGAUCGCUUUUAAAUAUACAAGGGGUUCUUCUUUAAAUAGAGGAAAAGGUUAAUCCUCUCCAGCAGGAUGCCCACUGGAUAUAUUAACAUCUGUAGGUAGUUGGAAGUGUAGAGAUGGAAUUCUCGGGUGCCAA	0.643
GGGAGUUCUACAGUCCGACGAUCAAUCCCUGUAUUUGGCUCUUGCAGCCUCAGGCACUGUGCCUACUCUCCAGGUCAUGUCCCUGUGGUUCUGGGGCCACCACUUGUGUAAAAUAAAGUACAGCCUGGACGCUUGGAAUUCUCGGGUGCCAA	0.267
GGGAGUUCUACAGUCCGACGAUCCACAGCUUCCUGUCCUUUGCCCUUGACUGUACUGAGUAUGUGGGUGGUUGACCCAUAUAGGCCAUGCCUCUAGCCAUCUGUGGAACCCUGUGGGUGUCAAGUAGAACCCAUGGAAUUCUCGGGUGCCAA	0.48
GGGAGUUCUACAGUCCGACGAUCUGUAGACCAUUGACUGACCCCAGUCAAAGAUAGGUCCUAGUGAUAUAAGAACACUAGCCCAAAAGGUCUAUGCAGUAGUUAAGUAGUGCUUUUGCUUAUUAUAGGGUGCUUGGAAUUCUCGGGUGCCAA	0.261
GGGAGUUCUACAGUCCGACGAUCUGUUUUGAAUAAUGACCACGCAUGGACACAGUUUCAUUAAUUUAAAUUGCACCACACAAGUAGCAGUUCAUAAGAAUAAAAUGUGCUUAUUUUACGCAUGGUCCAUAAAAUGGAAUUCUCGGGUGCCAA	0.616
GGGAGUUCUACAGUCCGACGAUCUUUCUUGCAUUUAUGGAGUUGCUUUUUCUUUCCCAAGGAAACUGAUGUUUGCCUGUCCGCUUUAUCUUUGUAGUACAUGAACAGUUCAGCCUUAGACUAUGUAACUGUUUUGGAAUUCUCGGGUGCCAA	2.6
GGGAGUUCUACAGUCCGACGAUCUCUGCUGCCAGGAAGCACAGUUUAAAAAUGCUAGUCUGGAUACAGAGAUGUUUUUGUUGCAUUGUGUUCUCAUAGCCUAUGCACAUCCUUAUGUUCUUCUAAGUAAUGCCUGGAAUUCUCGGGUGCCAA	0.363

Study 4
Target: CCND2, cyclin fold, Cln2 fusion (human)
Method: yeast growth competition, sequencing
Sample: yeast
Notes: weak parent motif
Relative to: not given
Reading: higher = stronger binding
Starting sequence: CDKN1A docking peptide (human); SKACRRLFGPVDS; partner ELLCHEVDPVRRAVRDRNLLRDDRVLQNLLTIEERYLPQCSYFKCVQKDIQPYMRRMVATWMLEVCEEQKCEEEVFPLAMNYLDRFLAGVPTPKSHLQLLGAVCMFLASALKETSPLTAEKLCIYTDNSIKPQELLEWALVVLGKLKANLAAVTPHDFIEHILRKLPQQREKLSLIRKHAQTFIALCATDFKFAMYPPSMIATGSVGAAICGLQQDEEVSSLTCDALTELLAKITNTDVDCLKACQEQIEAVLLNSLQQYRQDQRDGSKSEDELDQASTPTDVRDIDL
Variant	normalised enrichment score
SDACRRLFGPVDS [K2D]	0.398
SKACRSLFGPVDS [R6S]	0.0647
SWACRRLFGPVDS [K2W]	-0.189
SKACRRLFGPWDS [V11W]	0.73
SKANRRLFGPVDS [C4N]	-0.0682
SKACRRLYGPVDS [F8Y]	0.0147
SKACRRLFGWVDS [P10W]	-0.278
SKAKRRLFGPVDS [C4K]	-0.211
SKACRRLFGRVDS [P10R]	0.0384
SKASRRLFGPVDS [C4S]	0.207
SKACRRLFGPEDS [V11E]	1.18
SKACRRLLGPVDS [F8L]	-0.444
SKACRRLFGPVKS [D12K]	-0.302
SKGCRRLFGPVDS [A3G]	0.0566
SKACRMLFGPVDS [R6M]	0.348
SKACRRLFGYVDS [P10Y]	0.142
SKACWRLFGPVDS [R5W]	0.0181
SKACRRLCGPVDS [F8C]	0.108
SKACRRLFGPVVS [D12V]	0.135
SKACRRLFGPVCS [D12C]	0.267
SKACRRLIGPVDS [F8I]	0.762
SSACRRLFGPVDS [K2S]	0.44
SKACRRLFGPRDS [V11R]	0.532
SKACRRLFTPVDS [G9T]	0.34
